Measured values pooled from the literature.
A part holds a random share of what one study measured. Substitutions count along the parent as printed.

Study 1 — method: RNA Bind-n-Seq; form: RNA; sample: in vitro; concentration: 365 nM; baseline: no-protein control; direction: higher = stronger binding
Target: RNA binding protein fox-1 homolog 2, RRM domain, GST-SBP tag (RBFOX2, Homo sapiens, UniProt O43251-10, residues 100-194)
Setting: natural RNA segment, single round, ends assumed
All sequences stand within: GGGAGUUCUACAGUCCGACGAUC … UGGAAUUCUCGGGUGCCAA
Target sequence (chain): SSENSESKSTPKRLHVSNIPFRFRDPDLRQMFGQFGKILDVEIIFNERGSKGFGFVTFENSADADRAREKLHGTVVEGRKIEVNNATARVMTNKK
`GGGUCCAGCAGGGGUGGGGGGUUCCUGCUCUGCCCCUGCCCGUCCCCACCCAGUCUUGCCCUCCCAUCCUCUCAUCUAUUCCCCCGCUGGAGACGGAAGAUCUUUUAUUU`: “RBNS enrichment (R)” 0.584.
`CUCAGAUUCCUUAAGCAUGCAGAGUCACUCGAAUGAAAAAACAUACUCGACCUCUCCCUAAAAAGAUGUUGCAACCCAGUUUCUCUGAAUUCCACCACAAAAAGAGACCC` — result for “RBNS enrichment (R)”: 19.7.
`UGGGCCCCACAUCAUGGGAAAGGCUGUCAAAUAUCUUUCCCAAGCUCCAAGGCACUCAUUUGCUCCUUCCCCAGCCUCCAAUUAGAACAAGCCACCCACCAGCCUAUCUA`: “RBNS enrichment (R)” 0.524.
`UCCUAUUAAAUAAGAUUAUUUUAAGUUUUAGUGUCAACAUUGCAAUGCCAAUAGUAGGUGAGAGUGUAUUGCACAGAGUUGGAGAUAGUAAGGUGGUGACAUUUAACACA`: “RBNS enrichment (R)” 0.807.
For `CCCGUUGCAACUGGUCCCAGACCAGAAUGGCCUCCUCAGAAGGGGAGGUGCUCUUCAAAUCUCCCUUAGGGGCUGCAUACCUCCCCAGGUAAUCAAGCACGGAUCUUCUC`, “RBNS enrichment (R)” read 0.391.
`AUGUAAACGCAGCGUGUGCCCACGCUCAGCAGGUGUGCCAUCCUUCCACCUGCUGGGGCACCAUUCUUAGUAUACAGAGGUGGCCUUACACACAUCUUGCAUGGAUGGCA` — result for “RBNS enrichment (R)”: 1.42.
Under “RBNS enrichment (R)”, `GAUUUUACUUACGCUACCUCUCCAAUGCUGGCUUCAUUUUAAUUGUGUUUUAUAUGCUCAUUUAAAAUGACUUUUCAGUGUUCUUCAGUUUAAAAUCUGUUGUUUGACUU` is recorded as 0.386.
Under “RBNS enrichment (R)”, `GCCUGAACAUCGCCCUGGUGAAUGGGGUCAGUGGUGAGCUCCUAGAAGCCAGAGCCUUUGACAUGUGGGCUGGAGGUGAGUGGCCCACCACAGCAACCUACUGUAUAUUU` is recorded as 1.32.
For `ACACCAGGAGCUGCCACUGCAUGUCCCAACCAGACUGUGUCUGUCUGUGUCUGCAUGUAAGAGUGAGGGAGGGAAGGAAGGAACUACAAGAGAGUCGGAGAUGAUGCAGC`, “RBNS enrichment (R)” read 7.29.
`AAAUCAUUGAAGGUCUGGAUCCCUUUCUCUGAAUGGAGAGAUUGAGAGGGAUGUCGGGCAGUUCCCAUUAGAUUUAGUGGCCUUCAUGUUAUUCAGAAUUGUUUUGGUGA` — result for “RBNS enrichment (R)”: 1.37.
`AAAAUAACAGUGAAGUGAUUGAAACUUUCUUCUGAUGAGUUUCUCUAACCUACAGGAUGGAGUAAAACAACUGCUACAGUUCAGCACCUGUUUUAUGUGCCGAAUCACUG`: “RBNS enrichment (R)” 0.286.
`AUGAGCUCUGUUUCAACUAACGUGUCAUCUUGUAUUUCUUUCAAGGAAACCAAUUAGAUUCAAAUGUAGGAUAUUACAGGUUGGUUGAAAUCCCAUGUACAAAUAAAAUU` — result for “RBNS enrichment (R)”: 0.263.

Study 2 — method: aptamer microarray, sandwich; form: DNA with 2'F-ANA; sample: in vitro; concentration: 200 nM; with: Cy3 exosite-II aptamer, 400 nM; direction: higher = stronger binding; strand: GGTTGGTGTGGTTGG
Target: Prothrombin, mature alpha-thrombin (F2, Homo sapiens, UniProt P00734)
Setting: whole 15-mer aptamer, many near background
Under “mean fluorescence intensity”, `2'F-ANA at 3 4 10 11 12` is recorded as 361 a.u.
For `2'F-ANA at 1 3 5 6 7 9 12`, “mean fluorescence intensity” read 124 a.u.
`2'F-ANA at 5 11` — result for “mean fluorescence intensity”: 62 a.u.
For `2'F-ANA at 2 4 5 8 9 10 11 12 13 14 15`, “mean fluorescence intensity” read 48.3 a.u.
`2'F-ANA at 2 3 4 9 11 12 14`: “mean fluorescence intensity” 266 a.u.
`2'F-ANA at 5 6 7 8 9 10 11 13`: “mean fluorescence intensity” 49.6 a.u.
Under “mean fluorescence intensity”, `2'F-ANA at 1 2 4 5 7 9` is recorded as 74 a.u.
`2'F-ANA at 1 4 6 9 10 13 14 15` — result for “mean fluorescence intensity”: 70.2 a.u.
`2'F-ANA at 4 5 6 8 10 13 14` — result for “mean fluorescence intensity”: 46.1 a.u.
`2'F-ANA at 1 4 7 9 12 15` — result for “mean fluorescence intensity”: 253 a.u.
`2'F-ANA at 3 4 7 10 11 13 14`: “mean fluorescence intensity” 195 a.u.
`2'F-ANA at 1 3 4 6 8 9 10 11 12 13 14` — result for “mean fluorescence intensity”: 51.8 a.u.
`2'F-ANA at 3 4 7 9 10` — result for “mean fluorescence intensity”: 300 a.u.
For `2'F-ANA at 4 6 8 12 13 15`, “mean fluorescence intensity” read 386 a.u.
Under “mean fluorescence intensity”, `2'F-ANA at 2 5 8 15` is recorded as 79.7 a.u.
`2'F-ANA at 2 4 5 9 10 11` — result for “mean fluorescence intensity”: 43.7 a.u.
Under “mean fluorescence intensity”, `2'F-ANA at 2 5 6 7 8` is recorded as 80.4 a.u.
`2'F-ANA at 1 2 7 8 9 11 12 13 14`: “mean fluorescence intensity” 67.1 a.u.
For `2'F-ANA at 2 4 5 6 10 11 13`, “mean fluorescence intensity” read 46.2 a.u.
`2'F-ANA at 2 6 10 12 13` — result for “mean fluorescence intensity”: 154 a.u.
`2'F-ANA at 1 4 5 6 8 9 10 12 14` — result for “mean fluorescence intensity”: 44.7 a.u.
`2'F-ANA at 2 3 10 11 12`: “mean fluorescence intensity” 469 a.u.

Study 3 — method: RNA Bind-n-Seq; form: RNA; sample: in vitro; concentration: 200 nM; setting: whole 134-nt RNA, ends assumed; with: 150 mM LiCl; baseline: input library; direction: higher = stronger binding; each molecule: 7-deaza-guanosine replaces G
Target: Fragile X messenger ribonucleoprotein 1, C-terminal low-complexity region (Fmr1, Mus musculus, UniProt P35922)
All sequences stand within: GGGAGUUCUACAGUCCGACGAUC … UGGAAUUCUCGGGUGUCAAGG
`CACAGACAACACGCACCCACACAGACACAGAGGGAAGGGAAAGGGAUGGGGACAGGGUGCACAGCAGGGCGGGGUAGGACCCCAGCCCCU` gave a log2 enrichment of -0.274.
The log2 enrichment of `CAACUUUAGAGGAGGAUCUGAUGGAUAUGGCAGUGGACGUGGAUUUGGGGAUGGCUAUAAUGGGUAUGGAGGAGGACCUGGAGGUGGCAA` is reported as 0.424.
`GUCCUGUGCUACACAUCGUAUGUACCGAAUCGGGAAAAAAAGGGAAAAAGGGAAAGGGAAAGUAUUAUGUUACGCCGUUCGGAUCUGCAC` gave a log2 enrichment of 0.0379.
`UGGGAGGUGGAUUUUGUUUAUUUUUUUAGCUCAUUUCCAGGGGUGGGAAUUUUUUUUUAAUAUGAGUCAUGAAUAAAGUUGUUUUUGAAA` has a log2 enrichment of 0.0551.
`GUCCUGUGCUACACAUCGUAUGUACCGAAUCAAAUUUUUAAACCCCCCCAAACCCAAAAAAGUAUUAUGUUACGCCGUUCGGAUCUGCAC` has a log2 enrichment of 1.3.
With `CAAGUCCUGUGCUACACAUCGUAUGUACCGAAUCGGUUUGGUUUUUUUGGAAAGGAAAGUAUUAUGUUACGCCGUUCGGAUCUGCACUUC` the log2 enrichment was -1.15.
With `UCCUGUGCUACACAUCGUAUGUACCGAAUCGGCCCCCCGGGCCCCCCGGGGCCCCCCGGAAAGUAUUAUGUUACGCCGUUCGGAUCUGCA` the log2 enrichment was -0.26.
With `CCUGUGCUACACAUCGUAUGUACCGAAUCGGAAAAAAAGGAAAAAAAGGGAAAAAAAGGGAAAGUAUUAUGUUACGCCGUUCGGAUCUGC` the log2 enrichment was -1.1.
With `ACCAUGCAGGUGGGCAUCUUUGGGAAGUGCGGCAAGGGGGGGAUAGGGAGGGGGGUAACACUUUGGGAACAGGUGGUCCCAGGUCGUUUC` the log2 enrichment was 1.06.
With `UCCUGUGCUACACAUCGUAUGUACCGAAUCGGGGCCCCCCGGGCCCCCCGGCCCCCCGGAAAGUAUUAUGUUACGCCGUUCGGAUCUGCA` the log2 enrichment was 0.523.
`CCUGUGCUACACAUCGUAUGUACCGAAUCGGGGCCCCCGGGGCCCCCGGGGCCCCCGGGGAAAGUAUUAUGUUACGCCGUUCGGAUCUGC` has a log2 enrichment of -0.0435.

Study 4 — target: CCNE2, cyclin fold, Cln2 fusion (human); method: yeast growth competition, sequencing; sample: yeast; setting: weak parent motif; baseline: not given; direction: higher = stronger binding
Starting sequence: KIF20B docking peptide (human); KRAKRKLYTSEIS; partner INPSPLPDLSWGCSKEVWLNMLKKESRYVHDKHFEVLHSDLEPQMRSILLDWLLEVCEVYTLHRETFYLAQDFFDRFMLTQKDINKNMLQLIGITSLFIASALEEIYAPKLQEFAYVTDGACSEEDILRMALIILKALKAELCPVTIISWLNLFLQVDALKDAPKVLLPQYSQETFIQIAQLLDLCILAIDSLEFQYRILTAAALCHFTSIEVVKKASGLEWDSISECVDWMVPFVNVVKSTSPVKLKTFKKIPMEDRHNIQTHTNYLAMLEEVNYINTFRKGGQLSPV
For `KRAARKLYTSEIS [K4A]`, “normalised enrichment score” read 0.861.
`ARAKRKLYTSEIS [K1A]`: “normalised enrichment score” 0.89.
Under “normalised enrichment score”, `KRAKRKLYASEIS [T9A]` is recorded as 0.431.
`KRAKRKLATSEIS [Y8A]` — result for “normalised enrichment score”: -0.202.
`KRAKRKLYTSEIA [S13A]` — result for “normalised enrichment score”: 0.713.
`KAAKRKLYTSEIS [R2A]` — result for “normalised enrichment score”: 0.531.

Study 5 — method: DHFR PCA, deep sequencing; sample: yeast; with: (+)-ABA 0.032 µM; baseline: wild-type fitted maximum; direction: higher = stronger binding
Target: ABI1, truncated, D143A, DHFR fusion (Arabidopsis thaliana)
Setting: methotrexate growth selection, single substitutions
Starting sequence: PYL1, truncated, DHFR fusion (Arabidopsis thaliana); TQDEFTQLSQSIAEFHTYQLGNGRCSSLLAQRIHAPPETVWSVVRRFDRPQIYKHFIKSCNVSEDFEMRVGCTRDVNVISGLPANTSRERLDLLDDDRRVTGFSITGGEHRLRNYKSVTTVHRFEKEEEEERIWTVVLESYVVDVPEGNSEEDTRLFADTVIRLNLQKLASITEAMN; partner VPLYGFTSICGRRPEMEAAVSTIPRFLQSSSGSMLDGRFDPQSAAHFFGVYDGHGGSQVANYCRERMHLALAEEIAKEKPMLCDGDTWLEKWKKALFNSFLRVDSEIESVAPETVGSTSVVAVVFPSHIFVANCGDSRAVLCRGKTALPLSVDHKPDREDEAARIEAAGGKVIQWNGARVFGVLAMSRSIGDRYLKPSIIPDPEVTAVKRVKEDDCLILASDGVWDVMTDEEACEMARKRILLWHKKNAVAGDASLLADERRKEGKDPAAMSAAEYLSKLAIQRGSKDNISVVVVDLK
`A13V`: “relative binding score” 6.36%.
`W134I`: “relative binding score” 22.9%.
Under “relative binding score”, `H122G` is recorded as 1.9%.
`H16G`: “relative binding score” 3.12%.
`H16K` — result for “relative binding score”: -2.79%.
For `D153Q`, “relative binding score” read 1.25%.
For `S59F`, “relative binding score” read -1.71%.
Under “relative binding score”, `Q7R` is recorded as 15.3%.
`V137E`: “relative binding score” 0.623%.
For `L164T`, “relative binding score” read 12.5%.
`L29E`: “relative binding score” 0.181%.
For `I52A`, “relative binding score” read 30%.
`V136H` — result for “relative binding score”: -8.21%.
For `R49Q`, “relative binding score” read 39.9%.
For `Y18C`, “relative binding score” read 1.23%.
For `V78D`, “relative binding score” read 0.52%.
`V136M`: “relative binding score” 17.3%.
For `N61T`, “relative binding score” read 55.3%.

A few entries again (study 2):
`2'F-ANA at 1 4 7 9 12 15` — result for “mean fluorescence intensity”: 253 a.u.
`2'F-ANA at 3 4 7 10 11 13 14`: “mean fluorescence intensity” 195 a.u.
`2'F-ANA at 1 3 4 6 8 9 10 11 12 13 14` — result for “mean fluorescence intensity”: 51.8 a.u.
`2'F-ANA at 3 4 7 9 10` — result for “mean fluorescence intensity”: 300 a.u.
For `2'F-ANA at 4 6 8 12 13 15`, “mean fluorescence intensity” read 386 a.u.
